# Measurements collected from several papers.
# Every numbered part comes from another study and shows a few of its results, in no order.
# UniProt P51817, sequence (whole entry, looked up): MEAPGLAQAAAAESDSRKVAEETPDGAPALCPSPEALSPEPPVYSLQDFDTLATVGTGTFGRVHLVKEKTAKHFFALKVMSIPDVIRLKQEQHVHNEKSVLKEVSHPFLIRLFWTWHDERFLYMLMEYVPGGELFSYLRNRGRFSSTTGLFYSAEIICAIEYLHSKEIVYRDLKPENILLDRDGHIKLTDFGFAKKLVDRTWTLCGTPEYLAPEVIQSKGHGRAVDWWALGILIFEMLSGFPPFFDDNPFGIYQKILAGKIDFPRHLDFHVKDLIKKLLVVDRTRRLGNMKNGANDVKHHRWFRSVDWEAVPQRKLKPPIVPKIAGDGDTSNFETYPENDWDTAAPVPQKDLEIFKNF
# UniProt Q15831, sequence (whole entry, looked up): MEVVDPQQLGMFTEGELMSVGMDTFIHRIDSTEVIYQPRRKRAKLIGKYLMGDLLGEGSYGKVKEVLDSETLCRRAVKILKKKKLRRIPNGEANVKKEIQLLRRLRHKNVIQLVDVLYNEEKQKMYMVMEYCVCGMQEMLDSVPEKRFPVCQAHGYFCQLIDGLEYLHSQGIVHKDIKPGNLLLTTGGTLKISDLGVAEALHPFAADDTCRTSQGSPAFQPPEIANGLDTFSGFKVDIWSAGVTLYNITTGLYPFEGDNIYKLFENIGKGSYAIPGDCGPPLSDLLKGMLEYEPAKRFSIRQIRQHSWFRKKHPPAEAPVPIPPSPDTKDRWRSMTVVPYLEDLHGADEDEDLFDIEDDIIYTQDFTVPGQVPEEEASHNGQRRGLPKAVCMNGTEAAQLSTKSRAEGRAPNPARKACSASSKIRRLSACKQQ
# UniProt P10721, sequence (whole entry, looked up): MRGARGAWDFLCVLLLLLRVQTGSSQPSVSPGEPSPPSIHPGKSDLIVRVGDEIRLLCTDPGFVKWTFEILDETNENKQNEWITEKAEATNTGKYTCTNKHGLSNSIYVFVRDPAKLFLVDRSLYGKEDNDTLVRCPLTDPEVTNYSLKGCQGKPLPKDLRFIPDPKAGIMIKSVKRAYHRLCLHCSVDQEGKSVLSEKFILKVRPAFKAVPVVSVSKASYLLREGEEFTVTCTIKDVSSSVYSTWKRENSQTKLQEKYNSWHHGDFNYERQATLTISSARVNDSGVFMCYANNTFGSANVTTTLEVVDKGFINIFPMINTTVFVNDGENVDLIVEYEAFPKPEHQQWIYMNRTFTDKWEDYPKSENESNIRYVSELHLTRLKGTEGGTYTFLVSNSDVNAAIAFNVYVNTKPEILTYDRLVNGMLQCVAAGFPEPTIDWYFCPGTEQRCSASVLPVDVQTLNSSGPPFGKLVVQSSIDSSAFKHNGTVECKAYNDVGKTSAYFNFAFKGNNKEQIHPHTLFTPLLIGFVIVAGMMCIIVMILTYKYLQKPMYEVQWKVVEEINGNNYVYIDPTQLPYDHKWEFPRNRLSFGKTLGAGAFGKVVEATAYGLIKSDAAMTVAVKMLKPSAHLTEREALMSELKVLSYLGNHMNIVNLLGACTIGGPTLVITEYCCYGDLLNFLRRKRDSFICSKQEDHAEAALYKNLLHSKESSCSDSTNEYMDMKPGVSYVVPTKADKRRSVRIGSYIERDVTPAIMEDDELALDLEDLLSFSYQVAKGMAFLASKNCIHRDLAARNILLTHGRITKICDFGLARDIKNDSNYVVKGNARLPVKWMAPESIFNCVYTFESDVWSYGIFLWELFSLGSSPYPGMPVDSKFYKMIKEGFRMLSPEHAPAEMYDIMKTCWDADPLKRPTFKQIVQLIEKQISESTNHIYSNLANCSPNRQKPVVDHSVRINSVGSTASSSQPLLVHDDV
# UniProt Q9Y5S2, sequence (whole entry, looked up): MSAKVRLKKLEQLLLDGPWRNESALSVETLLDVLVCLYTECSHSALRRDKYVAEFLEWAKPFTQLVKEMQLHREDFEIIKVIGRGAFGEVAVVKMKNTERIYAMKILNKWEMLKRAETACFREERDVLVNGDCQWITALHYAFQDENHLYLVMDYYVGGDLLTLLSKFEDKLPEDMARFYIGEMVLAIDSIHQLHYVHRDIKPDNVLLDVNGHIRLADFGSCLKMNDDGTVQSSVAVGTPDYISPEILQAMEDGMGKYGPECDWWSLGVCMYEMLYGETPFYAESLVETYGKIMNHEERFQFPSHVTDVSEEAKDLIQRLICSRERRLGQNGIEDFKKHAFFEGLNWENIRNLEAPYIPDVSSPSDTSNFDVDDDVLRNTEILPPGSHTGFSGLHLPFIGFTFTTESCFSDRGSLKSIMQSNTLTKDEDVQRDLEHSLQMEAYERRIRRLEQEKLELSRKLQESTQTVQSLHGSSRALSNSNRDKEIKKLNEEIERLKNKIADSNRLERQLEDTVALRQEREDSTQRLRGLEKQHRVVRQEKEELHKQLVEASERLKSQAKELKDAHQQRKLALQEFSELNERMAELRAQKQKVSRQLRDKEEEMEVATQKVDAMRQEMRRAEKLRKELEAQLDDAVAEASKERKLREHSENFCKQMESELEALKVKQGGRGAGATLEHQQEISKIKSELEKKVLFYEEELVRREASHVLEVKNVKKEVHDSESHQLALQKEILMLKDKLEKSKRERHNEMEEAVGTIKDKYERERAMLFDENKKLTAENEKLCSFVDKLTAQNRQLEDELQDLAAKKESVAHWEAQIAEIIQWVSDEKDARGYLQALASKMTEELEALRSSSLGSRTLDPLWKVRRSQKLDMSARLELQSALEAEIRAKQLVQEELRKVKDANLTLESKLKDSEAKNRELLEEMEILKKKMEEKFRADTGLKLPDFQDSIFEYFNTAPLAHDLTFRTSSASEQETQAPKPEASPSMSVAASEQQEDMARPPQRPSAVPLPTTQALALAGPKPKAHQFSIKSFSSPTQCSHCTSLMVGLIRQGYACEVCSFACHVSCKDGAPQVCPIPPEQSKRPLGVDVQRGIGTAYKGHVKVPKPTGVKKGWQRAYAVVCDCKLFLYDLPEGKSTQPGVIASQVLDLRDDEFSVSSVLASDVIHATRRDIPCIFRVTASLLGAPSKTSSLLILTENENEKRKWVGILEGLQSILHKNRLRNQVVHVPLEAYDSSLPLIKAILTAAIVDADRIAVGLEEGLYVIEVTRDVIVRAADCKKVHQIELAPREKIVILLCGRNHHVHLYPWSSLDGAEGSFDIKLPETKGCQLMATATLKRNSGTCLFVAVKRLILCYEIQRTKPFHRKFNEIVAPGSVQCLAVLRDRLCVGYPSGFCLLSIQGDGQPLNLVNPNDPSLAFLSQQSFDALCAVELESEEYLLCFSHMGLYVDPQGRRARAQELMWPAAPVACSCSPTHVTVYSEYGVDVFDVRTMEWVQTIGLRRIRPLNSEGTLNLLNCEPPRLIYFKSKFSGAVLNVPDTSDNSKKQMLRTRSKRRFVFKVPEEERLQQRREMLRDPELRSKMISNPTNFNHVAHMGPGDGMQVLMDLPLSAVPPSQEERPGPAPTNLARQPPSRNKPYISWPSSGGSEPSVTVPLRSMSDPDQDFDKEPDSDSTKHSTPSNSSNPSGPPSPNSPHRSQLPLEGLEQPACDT

# Block 1 — effect on: cell-free assay; technique: competition with immobilised ligand; tested at: 1 µM
# SMILES: CCCOc1ccc([C@@H]2[C@@H](C(=O)O)[C@H](c3ccc4c(c3)OCO4)CN2CC(=O)Nc2c(CC)cccc2CC)cc1
target,remaining binding [%]
"KIT (Homo sapiens, UniProt P10721)",90
"CDC42BPB (Homo sapiens, UniProt Q9Y5S2)",97
"STK11 (Homo sapiens, UniProt Q15831)",100
"PRKX (Homo sapiens, UniProt P51817)",89

# Block 2 — technique: RNAcompete; molecule type: RNA; matrix: in vitro; tested at: 20 nM; setting: 7-mer, probes averaged, single round; reference: mean of 7-mers; direction: higher = stronger binding
# Target: PABPC1L2, full length, GST fusion (mouse, UniProt A0ABA7IW68)
# Target sequence (chain): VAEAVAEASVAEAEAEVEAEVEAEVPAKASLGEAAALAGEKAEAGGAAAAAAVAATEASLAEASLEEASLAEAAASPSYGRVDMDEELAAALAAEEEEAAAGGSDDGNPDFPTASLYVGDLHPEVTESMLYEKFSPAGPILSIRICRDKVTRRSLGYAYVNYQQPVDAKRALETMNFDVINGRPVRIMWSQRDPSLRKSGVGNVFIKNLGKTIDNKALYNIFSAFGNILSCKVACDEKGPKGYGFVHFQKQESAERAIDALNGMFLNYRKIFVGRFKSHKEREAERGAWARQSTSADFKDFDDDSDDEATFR
Strand,7-mer Z-score
UGCGUUA,-0.356
GUUGCUA,-0.128
AACUAAC,0.356
CUCACCG,-0.293
UUGAUCU,-0.34
CGCAUGG,-0.151
GCGUCAU,-0.17
GCAUCUU,-0.258

# Block 3 — technique: universal PBM; molecule type: double-stranded DNA, one strand shown; matrix: in vitro; tested at: not given; direction: higher = stronger binding
# Target: Sal-like protein 4, full length isoform B (SALL4, Homo sapiens, UniProt Q9UJQ4-2, residues 1-616)
# Setting: 8-mer, flanks averaged, mean of replicates
Strand,E-score
AGCCCACT,-0.239
AGTCCCCA,-0.28
ACCGTCCA,-0.165
AGTGCTAG,-0.0265
ATCGGACA,-0.0382
GGGGTATA,0.0407
GGTGTTAA,0.0259
GGTTCTTA,-0.0915

# Mixed results
Compound,matrix,quantity,result
CCC[C@@H]1NC(=O)CSC[C@@H](C(=O)OCC)N(C)C(=O)[C@H](CC(C)C)NC(=O)[C@H](C)N(C)C(=O)[C@@H](CC(C)C)NC(=O)[C@H](C)N(C)C(=O)[C@@H]2CCCN2C(=O)[C@@H](CC(C)C)NC(=O)CN(CCC)C1=O,hydrocarbon/water,logD,1.33

# Repeated from above (block 2):
Strand,7-mer Z-score
GUUGCUA,-0.128
AACUAAC,0.356
CUCACCG,-0.293
